Results of several laboratories.
A part holds a random share of what one study measured. Substitutions count along the parent as printed.

Study 1
Target: UBE2J1 UBC core domain (UniProt Q9Y385)
Method: yeast two-hybrid
Medium: yeast
Setting: mostly zero background
Baseline: not given
Direction: higher = stronger interaction
B1: TRIM41 RING domain (UniProt Q8WV44); chain PVQTLQEEAVCAICLDYFTDPVSIGCGHNFCRVCVTQLWGGEDEEDRDELDREEEEEDGEEE
B2: NFX1 RING domain (UniProt Q12986); chain IEQLTTEKYECMVCCELVRVTAPVWSCQSCYHVFHLNCIKKWARSPASQADGQSGWRCPACQNVSAHVPNTY
B3: HLTF RING domain (UniProt Q14527); chain LILSSGSDEECAICLDSLTVPVITHCAHVFCKPCICQVIQNEQPHAKCPLCRNDIHEDNLLE
B4: RNF6 RING domain (UniProt Q9Y252); chain NSIDSELGKICSVCISDYVTGNKLRQLPCMHEFHIHCIDRWLSENCTCPICRQPVLGSNIAN
B5: RING1 RING domain (UniProt Q06587); chain SPRSLHSELMCPICLDMLKNTMTTKECLHRFCSDCIVTALRSGNKECPTCRKKLVSKRSLR
B6: MKRN3 RING domain (UniProt Q13064); chain FAVQRGMDKVCGICMEVVYEKANPNDRRFGILSNCNHSFCIRCIRRWRSARQFENRIVKSCPQCRVTSELVIPSE
B7: MARCHF1 RING domain (UniProt Q8TCQ1); chain TAPRSQSRLSVCPSTQDICRICHCEGDEESPLITPCRCTGTLRFVHQSCLHQWIKSSDTRCCELCKYDFIMETKLKPLRKWE
B8: MID2 RING domain (UniProt Q9UJV3); chain KMETLESELTCPICLELFEDPLLLPCAHSLCFSCAHRILVSSCSSGESIEPITAFQCPTCRYVISLNHRGL
B9: VPS8 RING domain (UniProt Q8N3P4); chain TRGLNPKQDYCSICLQQYKRRQEMADEIIVFSCGHLYHSFCLQNKECTVEFEGQTRWTCYKCSSSNKVGKLSE
Residues (chain): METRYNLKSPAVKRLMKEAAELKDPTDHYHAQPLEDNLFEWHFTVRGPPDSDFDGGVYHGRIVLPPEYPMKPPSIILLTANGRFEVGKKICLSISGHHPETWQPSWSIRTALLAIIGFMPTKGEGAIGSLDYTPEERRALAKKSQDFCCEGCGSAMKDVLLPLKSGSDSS
| Sequence | lacZ reporter activity |
| --- | --- |
| B1 (TRIM41 RING domain) | 0 |
| B2 (NFX1 RING domain) | 0 |
| LEALSSDFLACKICLEQLRAPKTLPCLHTYCQDCLAQLADGGRVRCPECRETVPVPPEGV (TRIM56 RING domain (UniProt Q9BRZ2)) | 0 |
| DDVLTKDAGECVICLEELLQGDTIARLPCLCIYHKSCIDSWFEVNRSCPEHPAD (ZNRF1 RING domain (UniProt Q8ND25)) | 0 |
| B3 (HLTF RING domain) | 0 |
| B4 (RNF6 RING domain) | 0 |
| B5 (RING1 RING domain) | 0 |
| B6 (MKRN3 RING domain) | 0 |
| EIKEYKARLTCPCCNTRKKDAVLTKCFHVFCFECVRGRYEARQRKCPKCNAAFGAHDFHR (RNF40 RING domain (UniProt O75150)) | 0 |
| B7 (MARCHF1 RING domain) | 0 |
| B8 (MID2 RING domain) | 0 |
| B9 (VPS8 RING domain) | 0 |

Study 2
Target: Interferon regulatory factor 5, full length, phosphomimetic (IRF5, Homo sapiens, UniProt Q13568-2, residues 1-514, K96S/S451D/S453D/S456D/S462D)
Method: protein-binding microarray
Form: double-stranded DNA, one strand shown
Medium: in vitro
Concentration: 250 nM
Setting: 60-bp whole probe
Together with: salmon DNA 0.4 mg/ml
Baseline: random background probes
Direction: higher = stronger binding
Shared flanks, not repeated: GCCTAGCAC … GTCTTGATTCGCTTGACGCTGCTG
| Oligonucleotide | log fluorescence |
| --- | --- |
| TTAGGACTTGGACTGGGTTAGTGCTAG | -0.375 z-score |
| GACGGTATCTTTCTCCTGACGTGCTAG | 0.936 z-score |
| TTAGATATCTGTATCGATTAGTGCTAG | 5.45 z-score |
| GACGATTTCAGTTTAGAGACGTGCTAG | 1.66 z-score |
| GACGATATCACACTGGAGACGTGCTAG | 0.551 z-score |
| GACGATTCCGGGTATCGAGACGTGCTA | 1.09 z-score |
| TTAGGACTGGGACTGGGTCAGTGCTAG | -0.44 z-score |
| TTAGGACTGGGGTATCGGTCAGTGCTA | 1.6 z-score |
| TTTCCTTTACATTCCCCATTGTGCTAG | 3.22 z-score |
| TGTTTTTGCTTTCTTTATGCGTGCTAG | 3 z-score |
| GACGGTATCGGTTTAGGGACGTGCTAG | 6.86 z-score |
| GACGATATCAAACTGGAGACGTGCTAG | 0.534 z-score |
| TTAGGTATCCTTTTCCTTTAGTGCTAG | 0.582 z-score |
| TGACCTGCTCCAAACACCTCGTGCTAG | -0.217 z-score |
| TAAGGTTTCGACTTTCGGTTAGTGCTA | 10.3 z-score |
| GACGGTATCGGGTTTGGGGACGTGCTA | 1.92 z-score |
| GACGGATTGGGTCTCGGGACGTGCTAG | -0.187 z-score |
| CTAGAACTGAGACTGGATTAGTGCTAG | -0.248 z-score |
| TTAGATTCCAGGTTCGATTAGTGCTAG | 0.658 z-score |
| TCAGTTTCTGGTTTATTACTGTGCTAG | 4.8 z-score |
| TTAGACCTCAGTCTCGATTAGTGCTAG | 0.441 z-score |

Study 3
Target: Histone acetyltransferase KAT6A, winged helix 2, GST fusion (KAT6A, Homo sapiens, UniProt Q92794, residues 85-181)
Method: protein binding microarray
Form: double-stranded DNA, one strand shown
Medium: in vitro
Concentration: not given
Setting: 8-mer, flanks averaged, mean of 2 arrays, mostly near background
Baseline: not given
Direction: higher = stronger binding
Target sequence (chain): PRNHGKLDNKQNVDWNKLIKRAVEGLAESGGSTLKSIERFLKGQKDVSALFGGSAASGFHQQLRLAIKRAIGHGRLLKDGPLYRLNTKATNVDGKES
| Oligonucleotide | E-score |
| --- | --- |
| CGTGTTAA | 0.0436 |
| AAGCCATC | 0.0158 |
| AAAGCGCC | 0.0261 |
| AAAAGGCA | 0.0446 |
| CGAGTGGA | 0.0691 |
| GCGGGTCC | 0.0988 |
| CAGGAATC | 0.131 |
| CCCTTGCA | -0.123 |
| AAGCGAGC | 0.183 |
| GTTCGAGA | 0.0095 |
| CATGGACA | -0.0423 |
| CAGTAATC | -0.0289 |
| CAAGACTC | -0.0229 |
| ATCATGAT | -0.032 |
| ATATCAAC | 0.0166 |
| CTAGGGCC | 0.00737 |
| ACCGCGCG | 0.164 |
| CCAGCCAC | 0.0845 |
| AGCAACGA | -0.0256 |
| ACTAAGTG | 0.0234 |
| TCACAGCA | 0.0247 |
| CTTTGACA | -0.0241 |

Study 4
Target: CCNB3, cyclin fold, Cln2 fusion (human)
Method: yeast growth competition, sequencing
Medium: yeast
Setting: weak parent motif
Baseline: not given
Direction: higher = stronger binding
Parent: WEE2 docking peptide (human); KELRQKLNFSYCE
| Substitution | normalised enrichment score |
| --- | --- |
| C12A | -0.292 |
| Y11A | -0.0485 |
| Q5A | 0.0123 |
| F9A | 0.26 |
| L3A | 0.136 |
| K6A | 0.0245 |

Study 5
Target: FOSB, bZIP domain (human)
Method: DHFR protein complementation
Medium: yeast
Setting: single substitutions, most at no-binding floor
Baseline: wild-type JUN-FOS pair
Direction: higher = stronger binding
Parent: JUN, bZIP domain (human); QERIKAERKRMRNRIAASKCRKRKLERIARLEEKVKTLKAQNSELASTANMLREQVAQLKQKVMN; partner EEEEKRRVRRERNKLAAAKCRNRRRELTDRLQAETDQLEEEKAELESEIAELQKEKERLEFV
| Substitution | binding fitness |
| --- | --- |
| E44G | -0.237 natural log |
| L31S | -0.596 natural log |
| E32T | -0.167 natural log |
| L38F | -0.856 natural log |
| A40N | -0.136 natural log |
| Q41D | -0.399 natural log |
| N42H | -0.5 natural log |
| M51T | 0.00766 natural log |
| K39A | -0.571 natural log |
| T48H | -0.0702 natural log |
| E44T | -0.162 natural log |
| R30I | -0.011 natural log |
| V35M | -0.183 natural log |
| A40Q | 0.129 natural log |
| Q55S | -0.327 natural log |

Some of these lines once more (study 4):
| Substitution | normalised enrichment score |
| --- | --- |
| F9A | 0.26 |
| C12A | -0.292 |
| Y11A | -0.0485 |
| K6A | 0.0245 |
| Q5A | 0.0123 |
| L3A | 0.136 |
